Results of several laboratories.
Every numbered part comes from another study and shows a few of its results, in no order. Values joined by “and” are separate records of one study, mostly repeats; a detail may differ.
Sequence of UniProt Q9NSY1 (whole entry, looked up): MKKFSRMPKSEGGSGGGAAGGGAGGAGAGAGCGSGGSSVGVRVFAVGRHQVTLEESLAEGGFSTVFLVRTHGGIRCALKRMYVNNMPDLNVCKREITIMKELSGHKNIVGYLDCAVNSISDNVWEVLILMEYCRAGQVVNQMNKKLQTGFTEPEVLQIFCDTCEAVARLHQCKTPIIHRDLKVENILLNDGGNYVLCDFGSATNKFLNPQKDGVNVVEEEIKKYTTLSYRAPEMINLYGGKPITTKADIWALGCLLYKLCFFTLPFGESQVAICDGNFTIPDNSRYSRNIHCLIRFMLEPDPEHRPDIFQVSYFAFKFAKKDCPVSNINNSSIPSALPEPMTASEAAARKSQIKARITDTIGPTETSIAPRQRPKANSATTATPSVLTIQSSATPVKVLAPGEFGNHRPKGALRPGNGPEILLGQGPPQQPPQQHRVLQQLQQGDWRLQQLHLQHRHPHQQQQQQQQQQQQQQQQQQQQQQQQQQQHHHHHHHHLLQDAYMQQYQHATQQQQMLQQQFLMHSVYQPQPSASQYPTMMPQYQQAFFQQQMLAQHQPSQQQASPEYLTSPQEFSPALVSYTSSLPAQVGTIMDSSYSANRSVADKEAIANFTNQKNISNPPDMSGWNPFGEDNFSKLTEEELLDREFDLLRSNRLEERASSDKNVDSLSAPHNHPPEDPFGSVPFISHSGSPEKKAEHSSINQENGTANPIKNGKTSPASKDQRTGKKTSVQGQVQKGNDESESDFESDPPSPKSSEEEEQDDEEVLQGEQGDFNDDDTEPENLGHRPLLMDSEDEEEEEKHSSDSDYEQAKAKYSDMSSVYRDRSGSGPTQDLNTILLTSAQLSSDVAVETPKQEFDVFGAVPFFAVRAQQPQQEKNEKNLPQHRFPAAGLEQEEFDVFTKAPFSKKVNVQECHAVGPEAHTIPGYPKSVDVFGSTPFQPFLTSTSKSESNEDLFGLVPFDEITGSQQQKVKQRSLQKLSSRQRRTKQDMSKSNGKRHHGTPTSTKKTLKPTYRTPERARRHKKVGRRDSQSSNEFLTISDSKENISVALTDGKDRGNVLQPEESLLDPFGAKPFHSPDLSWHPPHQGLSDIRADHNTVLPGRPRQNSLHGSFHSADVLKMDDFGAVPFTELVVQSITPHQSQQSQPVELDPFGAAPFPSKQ

Study 1
Target: Dual specificity tyrosine-phosphorylation-regulated kinase 1B (DYRK1B, Homo sapiens, UniProt Q9Y463)
Effect on: enzyme activity
Mode: inhibitor
Method: radiometric
Tested at: 0.5 µM
Nc1ccc2ncnc(NCCc3ccc(Oc4ccccc4)cc3)c2c1 has a remaining activity of 104%.
Nc1ncnc2n[nH]c(Nc3ccc(F)cc3)c12 has a remaining activity of 99.2%.
C#Cc1cccc(Nc2ncnc3cc(OCCOC)c(OCCOC)cc23)c1 has a remaining activity of 93.7%.
For COc1ccc(C(=O)Nc2sc3c(c2C(N)=O)CCCC3)cc1OC, the remaining activity was 104%.
O=C1Nc2ccc3ncsc3c2/C1=C/c1cnc[nH]1 has a remaining activity of 11.3%.
With Cn1sc(=O)n(Cc2ccccc2)c1=O the remaining activity was 103%.

Study 2
Target: HLA class I histocompatibility antigen, C alpha chain, allele C*04:01 (Homo sapiens, UniProt P10321)
Effect on: peptide-MHC binding
Molecule type: peptide
Tested at: concentration not given
For `RLPAYAPLL`, binding read “inactive”.
Under binding, `LVTMGTGTFGR` is recorded as “inactive”.
For `YWMGGTTYF`, binding read “active”.
Under binding, `RPAGARAAF` is recorded as “inactive”.
For `TEAEKWPFF`, binding read “inactive”.
`YTTDVNQLY` — result for binding: “inactive”.
`YMYRVWSPL`: binding “inactive”.
For `FTMRLLSPV`, binding read “inactive”.

Study 3
Structure (SMILES): Cn1cncc1[C@](O)(COc1ccc(C#N)cc1-c1ccc(OC(F)(F)F)cc1)c1ccc(C#N)cc1
Effect on: cell-free assay
Method: competition with immobilised ligand
Tested at: 1 µM
Receptor-type tyrosine-protein kinase FLT3 (FLT3, Homo sapiens, UniProt P36888, D835V/ITD) — remaining binding: 69%.
For Tyrosine-protein kinase ABL1, non-phosphorylated (ABL1, Homo sapiens, UniProt P00519, Q252H): remaining binding read 96%.
BMP-2-inducible protein kinase (BMP2K, Homo sapiens, UniProt Q9NSY1) — remaining binding: 97%.

Other studies, line by line
Method: CCK-8
CC[C@H](C)c1nc2cc(Nc3ccnc4ccc(S(=O)(=O)C(C)C)cc34)ccc2s1.Cl gave a viability of 13.1% and 19.8% and 25.2% and 25.1% and 20.7% (HT-29; necroptosis protection; 0.625 µM, added: TNF-α SMAC mimetic zVAD).
For CC(C)S(=O)(=O)c1ccc2nccc(Nc3ccc4scnc4c3)c2c1, the viability was 16.4% (L929; necroptosis protection; 0.313 µM, added: TNF-α plus zVAD).
The viability of Cc1ccc(O)cc1Nc1ccnc2cc(-c3ccccn3)ccc12 is reported as 61.1% and 50.5% and 49.3% and 49.1% (L929; 3.125 µM, added: zVAD).

Some of these lines once more (study 3):
BMP-2-inducible protein kinase (BMP2K, Homo sapiens, UniProt Q9NSY1) — remaining binding: 97%.
